Measurements of several laboratories.
Every numbered part comes from another study and shows a few of its results, in no order. ± marks the error that the study gave.
UniProt O15164, sequence (whole entry, unmodified, looked up): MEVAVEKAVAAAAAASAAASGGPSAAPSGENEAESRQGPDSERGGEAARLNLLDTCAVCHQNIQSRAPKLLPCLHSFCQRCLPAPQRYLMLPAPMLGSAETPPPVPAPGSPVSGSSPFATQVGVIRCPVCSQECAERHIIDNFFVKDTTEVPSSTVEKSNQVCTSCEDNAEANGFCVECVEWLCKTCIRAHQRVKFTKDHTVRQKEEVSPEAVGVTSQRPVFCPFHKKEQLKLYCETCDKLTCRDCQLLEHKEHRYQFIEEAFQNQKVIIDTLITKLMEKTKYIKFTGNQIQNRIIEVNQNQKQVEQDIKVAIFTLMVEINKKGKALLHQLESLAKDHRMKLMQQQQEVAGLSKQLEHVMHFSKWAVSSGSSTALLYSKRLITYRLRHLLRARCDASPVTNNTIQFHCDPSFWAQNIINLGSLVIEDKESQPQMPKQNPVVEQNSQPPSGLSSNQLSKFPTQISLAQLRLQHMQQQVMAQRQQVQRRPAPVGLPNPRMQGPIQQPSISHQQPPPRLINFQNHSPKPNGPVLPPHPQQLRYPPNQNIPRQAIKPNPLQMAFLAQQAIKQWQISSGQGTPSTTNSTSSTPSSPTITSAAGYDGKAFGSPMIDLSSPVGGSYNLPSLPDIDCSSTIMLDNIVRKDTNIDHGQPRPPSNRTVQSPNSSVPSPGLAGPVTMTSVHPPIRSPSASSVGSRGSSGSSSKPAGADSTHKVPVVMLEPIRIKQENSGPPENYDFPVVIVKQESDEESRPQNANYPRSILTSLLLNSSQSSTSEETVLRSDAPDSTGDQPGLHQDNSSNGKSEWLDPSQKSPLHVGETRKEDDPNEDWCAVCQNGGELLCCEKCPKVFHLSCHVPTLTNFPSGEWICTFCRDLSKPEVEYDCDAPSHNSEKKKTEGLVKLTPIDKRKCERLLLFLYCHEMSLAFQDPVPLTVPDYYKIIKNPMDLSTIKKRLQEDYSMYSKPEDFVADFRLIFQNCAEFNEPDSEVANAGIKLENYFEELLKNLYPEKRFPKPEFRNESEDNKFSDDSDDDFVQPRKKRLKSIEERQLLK
UniProt P34913, sequence (whole entry, looked up): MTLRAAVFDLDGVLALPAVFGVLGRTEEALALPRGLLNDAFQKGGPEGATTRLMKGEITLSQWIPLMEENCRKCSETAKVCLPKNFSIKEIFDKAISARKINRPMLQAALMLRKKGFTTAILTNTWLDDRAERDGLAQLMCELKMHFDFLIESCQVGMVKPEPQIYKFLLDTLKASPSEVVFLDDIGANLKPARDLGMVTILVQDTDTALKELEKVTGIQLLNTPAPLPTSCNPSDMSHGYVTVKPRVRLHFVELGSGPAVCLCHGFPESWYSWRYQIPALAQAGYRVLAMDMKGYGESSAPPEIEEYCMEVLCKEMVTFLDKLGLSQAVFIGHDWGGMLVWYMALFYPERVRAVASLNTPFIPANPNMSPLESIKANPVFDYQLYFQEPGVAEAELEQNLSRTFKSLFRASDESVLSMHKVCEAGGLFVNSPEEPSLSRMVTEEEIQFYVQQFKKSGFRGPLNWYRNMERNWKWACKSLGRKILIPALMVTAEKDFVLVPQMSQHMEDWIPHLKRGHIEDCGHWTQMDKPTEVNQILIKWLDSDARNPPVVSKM

Sample 1
Compound: Cc1cc(OCc2nnc(SC3CCCC3)n2-c2cccnc2)ccc1-c1ccc(S(C)(=O)=O)cc1
| cell line | CC50 |
| --- | --- |
| EKVX | > 100 µM |
| MOLT-4 | > 100 µM |
| Hs-578T | > 100 µM |

Further values, each from its own experiment
| Structure (SMILES) | tested on | assay | test system | conditions | quantity | value |
| --- | --- | --- | --- | --- | --- | --- |
| CC[C@@H]1C(=O)N(C)c2cnc(Nc3ccc(C(=O)NC4CCN(C)CC4)cc3OC)nc2N1C1CCCC1 | Transcription intermediary factor 1-alpha, PHD-bromodomain (TRIM24, Homo sapiens, UniProt O15164) | thermal stabilisation, thermal shift | – | 10 µM | ΔTm | -0.47 ± 0.36 °C |
| N#Cc1ccc(-c2csc(CNC(=O)C34CC(CN(C(=O)COCCF)C3)C4)n2)cc1 | – | – | plasma human | – | unbound fraction | 0.14 to 0.15 |
| Cc1ccccc1S(=O)(=O)Nc1c(N2CCC(NC(=O)Nc3ccc(OC(F)(F)F)c(F)c3)CC2)c(=O)c1=O | EPHX2 (Homo sapiens, UniProt P34913) | – | – | – | IC50 | 0.0293 ± 0.0023 µM |

Excerpt of the above (sample 1):
| cell line | CC50 |
| --- | --- |
| Hs-578T | > 100 µM |
